Published values of several laboratories.
Compare with care: the assays were run in different laboratories. ± gives the spread as reported.
APP: Amyloid-beta precursor protein (APP, Homo sapiens, UniProt P05067)
Chain of UniProt P05067 (whole entry, looked up): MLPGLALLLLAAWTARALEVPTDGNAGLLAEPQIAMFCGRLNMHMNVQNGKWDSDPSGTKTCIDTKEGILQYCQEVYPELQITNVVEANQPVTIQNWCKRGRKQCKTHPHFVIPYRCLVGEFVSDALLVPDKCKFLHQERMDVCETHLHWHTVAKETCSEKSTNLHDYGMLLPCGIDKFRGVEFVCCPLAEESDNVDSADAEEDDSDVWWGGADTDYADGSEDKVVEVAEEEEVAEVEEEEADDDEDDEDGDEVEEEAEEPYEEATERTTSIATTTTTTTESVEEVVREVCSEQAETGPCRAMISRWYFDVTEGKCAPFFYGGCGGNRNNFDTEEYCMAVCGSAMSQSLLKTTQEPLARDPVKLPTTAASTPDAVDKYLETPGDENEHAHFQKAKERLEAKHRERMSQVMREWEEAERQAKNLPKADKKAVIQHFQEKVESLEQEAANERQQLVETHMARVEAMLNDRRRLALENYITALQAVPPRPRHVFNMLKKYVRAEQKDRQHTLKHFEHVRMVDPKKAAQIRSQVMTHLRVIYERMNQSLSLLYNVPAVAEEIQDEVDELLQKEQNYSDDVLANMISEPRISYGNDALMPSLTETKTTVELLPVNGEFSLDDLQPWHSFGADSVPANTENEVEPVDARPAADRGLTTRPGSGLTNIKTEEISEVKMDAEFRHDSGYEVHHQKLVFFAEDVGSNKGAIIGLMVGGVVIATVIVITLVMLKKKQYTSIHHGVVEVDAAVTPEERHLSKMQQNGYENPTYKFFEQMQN

`O=S1(=O)OC(c2ccc(O)cc2)(c2ccc(O)cc2)c2ccccc21` — result for ThT fluorescence: “decreased” (APP; amyloid beta aggregation, inhibitor; 100 µM, 3 h, 37 °C; relative to: untreated).
`CC[C@H](C)[C@H](NC(=O)[C@H](CCSC)NC(=O)[C@H](CCCNC(=N)N)NC(=O)[C@H](Cc1ccc(O)cc1)NC(=O)[C@H](C)NC(=O)[C@H](CCC(N)=O)NC(=O)CNC(=O)[C@H](CCCCN)NC(=O)[C@@H](N)CO)C(=O)O` gave an Aβ42 degradation of 12% (Amyloid-beta precursor protein, Aβ42 soluble (APP, Homo sapiens, UniProt P05067); protease, HPLC; 0.2 mM, 7 days, pH 7.4, 37 °C, added: soluble Aβ42 0.05 mM, HSA 0.025%).
`CC(C)C[C@H](NC(=O)[C@@H](NC(=O)[C@@H](N)C(C)C)C(C)C)C(=O)N[C@@H](C)C(N)=O` gave an inhibition of 16.5% (APP; amyloid aggregation, inhibitor, fluorescence; 4 µM, 24 h).
With `COc1ccc(C=CC(=O)C(CCC(=O)OC(C)(C)C)C(=O)C=Cc2ccc(OC)c(F)c2)cc1F` (stereo not drawn) the band density was 313 ± 98% (APP; Aβ aggregation, SDS-PAGE western blot, refers to: Aβ1-42 75-200 kDa band; 30 µM, 24 h, 37 °C, added: Aβ1-42 10 µM; relative to: DMSO).
`CC[C@H](C)[C@H](NC(=O)[C@@H](NC(=O)[C@@H](N)C(C)C)C(C)C)C(=O)N[C@@H](CC(C)C)C(N)=O` has an inhibition of 30% (APP; amyloid aggregation, inhibitor, fluorescence; 4 µM, 24 h).
`COCOc1ccc(C=CC(=O)C(CCC(=O)OC(C)(C)C)C(=O)C=Cc2ccc(OCOC)c(OC(F)(F)F)c2)cc1OC(F)(F)F` (stereo not drawn) gave a band density of 457 ± 86% (APP; Aβ aggregation, SDS-PAGE western blot, refers to: Aβ1-42 75-200 kDa band; 30 µM, 24 h, 37 °C, added: Aβ1-42 10 µM; relative to: DMSO).
Under ThT fluorescence, `CC1=C(/C=C/C(C)=C/C=C/C(C)=C/C=C/C=C(C)/C=C/C=C(C)/C=C/C2=C(C)C[C@@H](O)CC2(C)C)C(C)(C)C[C@H](O)C1` is recorded as “decreased” (APP; amyloid beta aggregation, inhibitor; 100 µM, 3 h, 37 °C; relative to: untreated).
For `CC[C@H](C)[C@H](NC(=O)[C@@H](NC(=O)CN)C(C)C)C(=O)N[C@@H](C)C(N)=O`, the inhibition was 64.5% (APP; amyloid aggregation, inhibitor, fluorescence; 4 µM, 24 h).
`CCC(C(=O)C=Cc1ccc(O)c(OC(F)(F)F)c1)C(=O)C=Cc1ccc(O)c(OC(F)(F)F)c1` (stereo not drawn) gave a band density of 949 ± 147% (APP; Aβ aggregation, SDS-PAGE western blot, refers to: Aβ1-42 75-200 kDa band; 30 µM, 24 h, 37 °C, added: Aβ1-42 10 µM; relative to: DMSO).
Under “time to first degradation”, `CC[C@H](C)[C@@H]1NC(=O)[C@H]([C@@H](C)O)NC(=O)[C@H](Cc2ccc(O)cc2)NC(=O)[C@H](CCCNC(=N)N)NC(=O)[C@@H]2CCCN2C(=O)[C@H]2CCCN2C(=O)[C@H]([C@@H](C)O)NC(=O)[C@H](C(C)C)NC(=O)[C@H](C(C)C)NC(=O)[C@H](CCCCN)NC(=O)[C@H](CO)NC(=O)[C@H](CCC(N)=O)NC(=O)[C@H](CO)NC(=O)[C@H](Cc2ccc(O)cc2)NC(=O)[C@H](CO)NC(=O)[C@H](Cc2ccc(O)cc2)NC(=O)[C@@H]2CCCN2C(=O)[C@H](CO)NC(=O)[C@H](CC(C)C)NC(=O)[C@H](CC(C)C)NC(=O)[C@H](C)NC(=O)[C@H](C)NC1=O` is recorded as at most 5 min (Amyloid-beta precursor protein, Aβ40 (APP, Homo sapiens, UniProt P05067); proteolysis by proteinase K, refers to: amyloid beta; 1.4 µM, 24 h preincubation, 37 °C, added: 20 µM amyloid beta, proteinase K 0.5 µg/mL).
`CC[C@@H](C)[C@@H](NC(=O)[C@@H](N)C(C)C)C(=O)N[C@H](C(=O)N[C@@H](C)C(N)=O)[C@@H](C)CC` gave an inhibition of 65.6% (APP; amyloid aggregation, inhibitor, fluorescence; 2 µM, 24 h).
`O=C(C=Cc1ccc(O)c(OC(F)(F)F)c1)C(CCOCCOCCOCCOC1CCCCO1)C(=O)C=Cc1ccc(O)c(OC(F)(F)F)c1` (stereo not drawn) has a band density of 556 ± 58% (APP; Aβ aggregation, SDS-PAGE western blot, refers to: Aβ1-42 75-200 kDa band; 30 µM, 24 h, 37 °C, added: Aβ1-42 10 µM; relative to: DMSO).

For quick reference, copied from above:
With `COc1ccc(C=CC(=O)C(CCC(=O)OC(C)(C)C)C(=O)C=Cc2ccc(OC)c(F)c2)cc1F` (stereo not drawn) the band density was 313 ± 98% (APP; Aβ aggregation, SDS-PAGE western blot, refers to: Aβ1-42 75-200 kDa band; 30 µM, 24 h, 37 °C, added: Aβ1-42 10 µM; relative to: DMSO).
